{"data": "Published values gathered from unrelated publications", "CDK2 with cyclin A": "Cyclin-dependent kinase 2, with cyclin A (CDK2, Homo sapiens, UniProt P24941)", "note": "Lines come from different studies, so protocols differ. “And” joins repeats or separate records; there may be more than shown. ± marks the error that the study gave."}
{"Structure (SMILES)": "C=C[C@]1(C)C[C@@H](OC(=O)CSCCN(CC)CC)[C@]2(C)[C@H](C)CC[C@]3(CCC(=O)[C@H]32)[C@@H](C)[C@@H]1O", "target or system": "Mycoplasmoides gallisepticum", "system": "chicken, infected", "conditions": "intramuscular, 40 mg/kg", "scale": "direction not given", "endpoint": "air sac lesion score", "result": "3 and 2 and 1"}
{"Structure (SMILES)": "O=C(O)CNC(=O)Cc1ccccc1", "system": "ventricular cardiomyocytes, C57BL/6 mouse", "conditions": "dose not given, 0.396 s", "endpoint": "sarcomere length", "result": "1.72 µm"}
{"Structure (SMILES)": "CN[C@H](CC(C)C)C(=O)N[C@H]1C(=O)N[C@@H](CC(N)=O)C(=O)N[C@H]2C(=O)N[C@H]3C(=O)N[C@H](C(=O)N[C@H](C(=O)O)c4cc(O)cc(O)c4-c4cc3ccc4O)[C@H](O)c3ccc(c(Cl)c3)Oc3cc2cc(c3O[C@@H]2O[C@H](CO)[C@@H](O)[C@H](O)[C@H]2O[C@H]2C[C@](C)(N)[C@H](O)[C@H](C)O2)Oc2ccc(cc2Cl)[C@H]1O", "target or system": "Staphylococcus", "system": "MRSE-8, mouse systemic infection", "conditions": "intravenous", "scale": "survival", "endpoint": "ED50", "result": "4.06 mg/kg"}
{"Structure (SMILES)": "O=C(CSc1nnc(-c2ccc([N+](=O)[O-])cc2)n1-c1ccccc1)N1CCOCC1", "target or system": "CDK2 with cyclin A", "endpoint": "Kd", "result": "> 100 µM"}
{"Structure (SMILES)": "CCn1cc(-c2cc(Cn3ccnc3)cc3c2CCN([C@H](c2cc(OC)ccn2)C2CC2)C3=O)c(C(F)(F)F)n1", "target or system": "RCM-1", "assay": "cell growth, inhibitor", "conditions": "120 h", "endpoint": "EC50", "result": "> 30 µM"}
{"Structure (SMILES)": "CC/C(=N\\NC(=O)NCc1cccc(O)c1)c1ccc(O)c(C)c1O", "target or system": "SK-OV-3", "assay": "Western blot, refers to: YAP", "conditions": "10 µM, 3 h, 3D gellan gum culture, unit not given", "scale": "baseline: β-actin", "endpoint": "protein level", "result": "0.98 ± 0.11"}
{"Structure (SMILES)": "NC(=O)c1cnc2[nH]ccc2c1N[C@@H]1[C@@H]2CC3C[C@H]1C[C@@](O)(C3)C2", "assay": "flow cytometry", "system": "Japanese healthy men, blood", "conditions": "oral, 10 mg twice daily, 72 h after day 7 dose", "scale": "baseline: baseline", "endpoint": "CD8+ effector memory change", "result": "0.03%"}
{"Structure (SMILES)": "N#Cc1ccc2c(-c3ccncc3)c(-c3ccc(F)cc3)nn2c1", "target or system": "orf19.4144 kinase Candida albicans", "assay": "MIB/MS competition binding", "system": "Candida albicans cell lysate", "conditions": "100 nM", "scale": "baseline: DMSO, lower = stronger binding", "endpoint": "log2 fold change", "result": -0.0667}
{"Structure (SMILES)": "CCn1cc(-c2cc(Cn3ccoc3=N)cc3c2CCN([C@@H](C)c2cc(OC)ccn2)C3=O)c(C(F)(F)F)n1", "target or system": "BT-20", "assay": "cell growth, inhibitor", "conditions": "120 h", "endpoint": "EC50", "result": "2.41 µM"}
{"Structure (SMILES)": "CC(C)NCC(O)c1ccc(O)c(O)c1 (stereo not drawn)", "system": "ventricular cardiomyocytes, C57BL/6 mouse", "conditions": "dose not given, 0.288 s", "endpoint": "sarcomere length", "result": "1.71 µm"}
{"Structure (SMILES)": "COc1cnc2cccc(N3CCc4c(cc(Cn5ccnc5C)cc4-c4cn(C)nc4C(F)(F)F)C3=O)c2c1", "target or system": "CA46", "assay": "cell growth, inhibitor", "conditions": "120 h", "endpoint": "EC50", "result": "3.24 µM"}
{"Structure (SMILES)": "c1ccc(-c2n[nH]cc2-c2ccnc3ccccc23)nc1", "target or system": "orf19.4144 kinase Candida albicans", "assay": "MIB/MS competition binding", "system": "Candida albicans cell lysate", "conditions": "1 µM", "scale": "baseline: DMSO, lower = stronger binding", "endpoint": "log2 fold change", "result": 1.33}
{"Structure (SMILES)": "O=P(O)(O)C(O)(Cn1ccnc1)P(=O)(O)O", "target or system": "hFOB 1.19", "assay": "AlamarBlue", "conditions": "15 µM, 72 h", "scale": "baseline: control", "endpoint": "viability", "result": "99 ± 2%"}
{"Structure (SMILES)": "N#Cc1ccn2c(-c3ccncc3)c(-c3ccc(F)cc3)nc2c1", "target or system": "orf19.6492 kinase Candida albicans", "assay": "MIB/MS competition binding", "system": "Candida albicans cell lysate", "conditions": "10 µM", "scale": "baseline: DMSO, lower = stronger binding", "endpoint": "log2 fold change", "result": 0.098}
{"Structure (SMILES)": "Cn1cc(-c2ccc(-c3cncc(Cl)c3N3CCC4(CCNC4=O)CC3)cc2)cn1", "target or system": "COLO 205", "assay": "gene expression, microarray, refers to: SLC2A4 (GLUT4) mRNA", "conditions": "concentration not given, 6 h", "scale": "baseline: untreated cells", "endpoint": "log2 fold change", "result": -2.54}
{"Structure (SMILES)": "Cc1n[nH]c2ccc(-c3cc(OC[C@@H](N)Cc4ccccc4)cnc3-c3ccoc3)cc12", "target or system": "orf19.4518 kinase Candida albicans", "assay": "MIB/MS competition binding", "system": "Candida albicans cell lysate", "conditions": "10 µM", "scale": "baseline: DMSO, lower = stronger binding", "endpoint": "log2 fold change", "result": -0.0364}
{"Structure (SMILES)": "CC(=O)NC[C@H]1CN(c2ccc(N3CCOCC3)c(F)c2)C(=O)O1", "target or system": "Staphylococcus aureus", "system": "MRSA, 10 isolates", "conditions": "serum 25%", "endpoint": "MIC50", "result": "1 µg/mL"}
{"Structure (SMILES)": "O=C(/C=C/C=C/C=C/C1CCCCC1)NC1=C[C@@](O)(/C=C/C=C/C=C/C(=O)NC2=C(O)CCC2=O)[C@@H]2O[C@@H]2C1=O", "target or system": "NCI-H2052", "assay": "cell growth, CellTiter-Glo", "conditions": "78 h", "endpoint": "GI50", "result": "15.3 µM"}
{"Structure (SMILES)": "C[C@H](Oc1ccc(Br)cc1-c1ccon1)C(=O)O", "assay": "muscle velocity recovery cycles", "system": "human, tibialis anterior muscle", "conditions": "200 mg once daily, multiple doses, multiple ascending dose", "scale": "baseline: placebo", "endpoint": "relative refractory period", "result": "-0.084 ms"}
{"Structure (SMILES)": "CC(=O)NC[C@H]1CN(c2ccc(N3CCOCC3)c(F)c2)C(=O)O1", "target or system": "Enterococcus faecium", "system": "HM-952", "endpoint": "MIC", "result": "2.96 µM"}
{"Structure (SMILES)": "COc1cc(C(=O)NS(=O)(=O)c2ccccc2C)ccc1Cc1cn(C)c2ccc(NC(=O)OC3CCCC3)cc12", "target or system": "native VRAC", "assay": "ion current, inhibitor, whole-cell patch clamp", "system": "wild-type HCT cells", "conditions": "10 µM, pH 6.0, extracellular pH", "endpoint": "inhibition", "result": "78.3% and 78.7% and 68.9% and 42.5% and 67.3%"}
{"Structure (SMILES)": "O=C(N1CCc2ccccc21)n1ccnn1", "target or system": "Arabidopsis thaliana", "system": "wild type, seedlings", "conditions": "0.1 µM, continuous red light, added: 0.3 µM karrikin KAR2", "endpoint": "hypocotyl length", "result": "13.3 mm"}
{"Structure (SMILES)": "O=C(CSc1nnc(-c2ccccc2O)n1-c1ccccc1)Nc1cccc(C(=O)O)c1", "target or system": "CDK2 with cyclin A", "endpoint": "Kd", "result": "> 100 µM"}
{"Structure (SMILES)": "CC(C)n1ncc2c(C(=O)NCC3(C)CNC3)cc(C3CC3)nc21", "target or system": "coxsackievirus B3", "assay": "CPE", "system": "Vero", "conditions": "1.5 µM", "endpoint": "cell protection", "result": "86.1% and 91.8%"}
